Measurements gathered from unrelated publications.
Each numbered part is a random draw from the data of one study; scales do not carry over between parts. Positions count from the first letter of the parent shown.

Set 1
Target: CCND1, cyclin fold, Cln2 fusion (human)
Method: yeast growth competition, sequencing
Sample: yeast
Notes: strong parent motif
Relative to: not given
Reading: higher = stronger binding
Starting sequence: E2F1 docking peptide (human); PPVKRRLDFETDH; partner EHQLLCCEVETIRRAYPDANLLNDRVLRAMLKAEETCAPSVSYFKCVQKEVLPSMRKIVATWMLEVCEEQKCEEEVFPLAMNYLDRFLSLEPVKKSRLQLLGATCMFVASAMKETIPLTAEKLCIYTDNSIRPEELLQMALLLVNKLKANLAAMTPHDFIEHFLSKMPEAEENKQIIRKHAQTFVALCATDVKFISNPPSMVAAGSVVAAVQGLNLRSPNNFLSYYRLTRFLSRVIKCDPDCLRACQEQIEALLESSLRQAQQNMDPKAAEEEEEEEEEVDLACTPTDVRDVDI
For `D12Q`, “normalised enrichment score” read 2.82.
`T11H`: “normalised enrichment score” 2.79.
`E10W`: “normalised enrichment score” 0.29.
Under “normalised enrichment score”, `D8W` is recorded as 1.09.
Under “normalised enrichment score”, `E10L` is recorded as 1.06.
`V3A` — result for “normalised enrichment score”: 2.87.
For `K4G`, “normalised enrichment score” read 1.78.
For `D8T`, “normalised enrichment score” read 2.96.
`D12C`: “normalised enrichment score” 3.37.
For `L7A`, “normalised enrichment score” read 0.426.
Under “normalised enrichment score”, `L7H` is recorded as -0.136.
`K4T` — result for “normalised enrichment score”: 1.54.
Under “normalised enrichment score”, `K4H` is recorded as 1.88.
Under “normalised enrichment score”, `E10I` is recorded as 1.23.
Under “normalised enrichment score”, `T11A` is recorded as 2.62.

Set 2
Target: ABI1, truncated, D143A, DHFR fusion (Arabidopsis thaliana)
Method: DHFR PCA, deep sequencing
Sample: yeast
Notes: methotrexate growth selection, single substitutions
Added: (+)-ABA 4.8 µM
Relative to: wild-type fitted maximum
Reading: higher = stronger binding
Starting sequence: PYL1, truncated, DHFR fusion (Arabidopsis thaliana); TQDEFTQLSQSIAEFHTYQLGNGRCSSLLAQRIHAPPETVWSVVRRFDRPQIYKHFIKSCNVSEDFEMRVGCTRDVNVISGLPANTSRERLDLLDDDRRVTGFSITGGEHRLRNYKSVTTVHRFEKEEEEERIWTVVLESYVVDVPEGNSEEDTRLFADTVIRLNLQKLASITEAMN
`E38C`: “relative binding score” 34.7%.
`I12W` — result for “relative binding score”: 3.59%.
For `G71Y`, “relative binding score” read 2.38%.
`L166G` — result for “relative binding score”: -4.21%.
`Q51T`: “relative binding score” 29.8%.
`G23I` — result for “relative binding score”: 6%.
`R74A`: “relative binding score” 1.51%.
`D95K`: “relative binding score” -9.89%.
Under “relative binding score”, `V70G` is recorded as 8.46%.
For `I12P`, “relative binding score” read 2.17%.
Under “relative binding score”, `D75L` is recorded as 81.8%.
`E125F`: “relative binding score” 78.5%.
Under “relative binding score”, `E129A` is recorded as 80.6%.
For `I105W`, “relative binding score” read -8.01%.
Under “relative binding score”, `S150M` is recorded as -3.65%.
For `I33E`, “relative binding score” read 4.25%.
Under “relative binding score”, `G23K` is recorded as 62.8%.

Set 3
Target: RNA binding protein fox-1 homolog 2, RRM domain, GST-SBP tag (RBFOX2, Homo sapiens, UniProt O43251-10, residues 100-194)
Method: RNA Bind-n-Seq
Molecule type: RNA
Sample: in vitro
Concentration: 365 nM
Notes: natural RNA segment, single round, ends assumed
Relative to: no-protein control
Reading: higher = stronger binding
Construct (chain): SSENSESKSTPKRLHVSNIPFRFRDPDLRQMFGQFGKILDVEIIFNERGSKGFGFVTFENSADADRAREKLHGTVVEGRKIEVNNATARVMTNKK
`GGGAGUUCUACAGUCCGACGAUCUCAAAUAAACCAAUGAAAAAGCUUUGCCGAUGAUAAUAAAAGAUGCUCACACUUUCAUAGCGCUUGCUACGUGACAAGUACCGCUGUAAAUAAAUGCCUCAUGAAAACCAUGGAAUUCUCGGGUGCCAA` — result for “RBNS enrichment (R)”: 0.58.
For `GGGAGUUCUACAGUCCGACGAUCACCAGGAGGAUCUGCGCACGGUGCACAGCCCACCAGAGCACUACAGCCUUUUAUUGAGUGGGGCAAGUGCUGGGCUGUGGUCGUGCCCUGACAGCAUCUUCCCCAGGCAGUGGAAUUCUCGGGUGCCAA`, “RBNS enrichment (R)” read 0.516.
`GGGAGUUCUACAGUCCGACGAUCCAGUAAGCCUAAAAGUUAGCAGAAGAUGGCCUCCUGCCAGCAGGAAAUCUUUACCCUUUAGUACCCGAACCAGUCUCAAGGUGUUCUUUGGAAAUAACCAGGGUUAAAGUUGGAAUUCUCGGGUGCCAA` — result for “RBNS enrichment (R)”: 0.442.
`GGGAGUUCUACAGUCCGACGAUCGGGUAGGGGGUGGGUGUGGUAAAGGAGGGCCGCACCCUAGGGUUUUCAAAUAAAACAACUAGAAAAAGUUCUUGCUUGCUGUUUACCUGGCUGAUUCUGUGUGACUGUGGUGGAAUUCUCGGGUGCCAA`: “RBNS enrichment (R)” 1.57.
Under “RBNS enrichment (R)”, `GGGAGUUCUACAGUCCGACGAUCCUGUUUUGCAUAAUGAACAUUUUUAUUGGGCAUUCAAAGGGUGCAAGAUUGUCUGCUUACUCAUUUUUAAAAAUUAAAGAAAUGAACAAUCAGUGUGGCUAUUCCUAGCAUGGAAUUCUCGGGUGCCAA` is recorded as 3.42.
`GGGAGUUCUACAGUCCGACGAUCGGAUAACUAACUCCUAGGGAUAACCAUUUCUAUCCUGUUCCAAAGUCUUAUUUUAUAGUUUGAAAAGCACUUUGCACACAGUUCUUGUAUAUAAAAGUAAAGAUGUAAUUUGGAAUUCUCGGGUGCCAA`: “RBNS enrichment (R)” 4.83.
`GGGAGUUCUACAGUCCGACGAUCAGGACAAGAGAGUAGGCAGGCUUACAGGUGCAGACUGAGUGCUUCUCCGCCUGCCCUCUUCCCCUUGUUUCCUUGGGUGAGUGUGGGGGGCAGCCUGCUGUCCCUCCCACUGGAAUUCUCGGGUGCCAA`: “RBNS enrichment (R)” 0.183.
Under “RBNS enrichment (R)”, `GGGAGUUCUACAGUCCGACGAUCCAUUUCCUCUUUCUAGCCGUCCUUUUCUAGUGUGUGCUCACUCUUCCUAGGAACUUUUAAGACUUCUUGGUACCUAUGAACAUAGGUCCUCCCCUCACCCCAACUCUAGGUGGAAUUCUCGGGUGCCAA` is recorded as 0.363.

Set 4
Target: Ras GTPase-activating protein-binding protein 1, full length (G3BP1, Homo sapiens, UniProt Q13283)
Sequence of UniProt Q13283 (whole entry, looked up): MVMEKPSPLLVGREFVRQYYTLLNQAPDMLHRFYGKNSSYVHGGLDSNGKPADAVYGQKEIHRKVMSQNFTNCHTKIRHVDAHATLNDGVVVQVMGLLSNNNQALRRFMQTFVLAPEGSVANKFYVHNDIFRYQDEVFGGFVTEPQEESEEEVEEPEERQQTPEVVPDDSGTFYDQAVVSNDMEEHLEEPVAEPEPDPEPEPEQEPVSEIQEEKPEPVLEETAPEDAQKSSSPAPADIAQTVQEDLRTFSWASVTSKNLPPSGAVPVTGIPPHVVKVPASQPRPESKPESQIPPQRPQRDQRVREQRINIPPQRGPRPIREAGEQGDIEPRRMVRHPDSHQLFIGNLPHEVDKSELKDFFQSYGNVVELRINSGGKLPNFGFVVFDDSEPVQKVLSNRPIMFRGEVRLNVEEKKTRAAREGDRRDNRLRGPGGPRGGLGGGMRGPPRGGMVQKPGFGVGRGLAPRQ
Method: RNA Bind-n-Seq
Molecule type: RNA
Sample: in vitro
Concentration: 200 nM
Notes: whole 134-nt RNA, ends assumed
Added: 150 mM KCl
Relative to: input library
Reading: higher = stronger binding
`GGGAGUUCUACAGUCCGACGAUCGAAAUUAUGGAAGUGGAAAUUACAAUGAUUUUGGAAAUUAUAACCAGCAACCUUCUAACUACGGUCCAAUGAAGAGUGGAAACUUUGGUGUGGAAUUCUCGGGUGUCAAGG` has a log2 enrichment of -1.32.
For `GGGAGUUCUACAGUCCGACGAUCACCAUGCAGGUGGGCAUCUUUGGGAAGUGGGGCAAGGGGGGGAUAGGGAGGGGGGUAACACUUUGGGAACAGGUGGUACCAGGUCGUUUCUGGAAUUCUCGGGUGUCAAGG`, the log2 enrichment was 1.07.
`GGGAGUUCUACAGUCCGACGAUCGUCCUGUGCUACACAUCGUAUGUACCGAAUCGGGGAAAAAAAGGGGAAAGGGGAGGGGAAAGUAUUAUGUUACGCCGUUCGGAUCUGCACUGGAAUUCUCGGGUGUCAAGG` gave a log2 enrichment of 0.222.
`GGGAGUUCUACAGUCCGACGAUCAAGUCCUGUGCUACACAUCGUAUGUACCGAAUCGGGAAAGGGAAAAAAAGGGAGGGAAAGUAUUAUGUUACGCCGUUCGGAUCUGCACUUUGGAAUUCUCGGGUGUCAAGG` has a log2 enrichment of 0.219.
`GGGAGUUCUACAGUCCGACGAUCAGUCCUGUGCUACACAUCGUAUGUACCGAAUCGGGGAGGGGAGGGGUUUUUUUGGGGAAAGUAUUAUGUUACGCCGUUCGGAUCUGCACUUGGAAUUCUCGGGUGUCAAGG` has a log2 enrichment of 0.537.
With `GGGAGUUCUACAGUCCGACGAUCCUCAAGUCCUGUGCUACACAUCGUAUGUACCGAAUCGGGGUUGGUUGGGUUGGGAAAGUAUUAUGUUACGCCGUUCGGAUCUGCACUUCCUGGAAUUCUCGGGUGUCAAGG` the log2 enrichment was 0.723.
With `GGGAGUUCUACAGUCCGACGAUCUGGGAGGUGGAUUUUGUUUAUAUUUUUAGCUCAUUUCCAGGGGUGGGAAUUUUUUUUUAAUAUGUGUCAUGAAUAAAGUUGUUUUUGAAAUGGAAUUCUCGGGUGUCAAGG` the log2 enrichment was 0.161.
For `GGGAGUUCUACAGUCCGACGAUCACCAUGCAGGUGGGCAUCUUUGGGAAGUGGGGCAAGGGGGGGAUAGGGAAAAGGGUAACACUUUGGGAACAGGUGGUCCCAGGUCGUUUCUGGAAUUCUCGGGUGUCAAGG`, the log2 enrichment was 0.972.
With `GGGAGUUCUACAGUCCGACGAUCCUCAAGUCCUGUGCUACACAUCGUAUGUACCGAAUCGGGCCGGCCGGGGCCGGAAAGUAUUAUGUUACGCCGUUCGGAUCUGCACUUCCAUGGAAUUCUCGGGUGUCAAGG` the log2 enrichment was -0.375.

Repeated from above (set 3):
`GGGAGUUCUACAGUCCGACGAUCCAGUAAGCCUAAAAGUUAGCAGAAGAUGGCCUCCUGCCAGCAGGAAAUCUUUACCCUUUAGUACCCGAACCAGUCUCAAGGUGUUCUUUGGAAAUAACCAGGGUUAAAGUUGGAAUUCUCGGGUGCCAA` — result for “RBNS enrichment (R)”: 0.442.
`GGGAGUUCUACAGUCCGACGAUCGGGUAGGGGGUGGGUGUGGUAAAGGAGGGCCGCACCCUAGGGUUUUCAAAUAAAACAACUAGAAAAAGUUCUUGCUUGCUGUUUACCUGGCUGAUUCUGUGUGACUGUGGUGGAAUUCUCGGGUGCCAA`: “RBNS enrichment (R)” 1.57.
Under “RBNS enrichment (R)”, `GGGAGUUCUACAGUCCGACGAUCCUGUUUUGCAUAAUGAACAUUUUUAUUGGGCAUUCAAAGGGUGCAAGAUUGUCUGCUUACUCAUUUUUAAAAAUUAAAGAAAUGAACAAUCAGUGUGGCUAUUCCUAGCAUGGAAUUCUCGGGUGCCAA` is recorded as 3.42.
